Results of several laboratories.
Each numbered part is a random draw from the data of one study; scales do not carry over between parts.
Chain of UniProt P21802 (whole entry, looked up): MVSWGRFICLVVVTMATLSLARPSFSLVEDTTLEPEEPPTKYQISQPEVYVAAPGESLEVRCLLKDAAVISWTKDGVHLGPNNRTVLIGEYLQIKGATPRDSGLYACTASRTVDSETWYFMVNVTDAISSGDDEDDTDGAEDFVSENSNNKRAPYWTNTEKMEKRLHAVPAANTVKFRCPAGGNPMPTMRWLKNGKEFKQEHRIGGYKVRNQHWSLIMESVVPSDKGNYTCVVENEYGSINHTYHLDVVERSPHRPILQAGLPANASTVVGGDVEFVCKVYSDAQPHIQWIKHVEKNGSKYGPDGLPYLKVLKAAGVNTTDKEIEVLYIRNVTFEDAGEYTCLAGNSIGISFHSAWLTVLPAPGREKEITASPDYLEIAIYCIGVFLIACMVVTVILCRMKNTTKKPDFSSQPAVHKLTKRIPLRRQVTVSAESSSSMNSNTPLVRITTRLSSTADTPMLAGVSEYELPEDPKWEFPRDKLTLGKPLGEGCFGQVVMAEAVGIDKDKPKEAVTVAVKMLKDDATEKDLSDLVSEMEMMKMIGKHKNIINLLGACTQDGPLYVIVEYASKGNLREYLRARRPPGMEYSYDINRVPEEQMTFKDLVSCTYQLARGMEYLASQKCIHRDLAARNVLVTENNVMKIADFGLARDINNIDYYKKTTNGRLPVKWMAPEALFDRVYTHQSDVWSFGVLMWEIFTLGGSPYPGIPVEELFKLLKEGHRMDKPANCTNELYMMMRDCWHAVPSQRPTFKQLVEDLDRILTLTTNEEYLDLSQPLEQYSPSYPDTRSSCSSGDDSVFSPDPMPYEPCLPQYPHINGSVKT
Chain of UniProt P61075 (whole entry, looked up): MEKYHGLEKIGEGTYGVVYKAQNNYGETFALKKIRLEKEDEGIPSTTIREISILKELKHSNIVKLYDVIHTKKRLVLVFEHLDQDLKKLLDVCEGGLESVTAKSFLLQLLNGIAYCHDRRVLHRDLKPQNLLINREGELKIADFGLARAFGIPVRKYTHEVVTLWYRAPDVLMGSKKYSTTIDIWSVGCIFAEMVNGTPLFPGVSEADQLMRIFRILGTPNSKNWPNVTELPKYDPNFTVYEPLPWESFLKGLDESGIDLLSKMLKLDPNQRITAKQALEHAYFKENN
Chain of UniProt P14616 (whole entry, looked up): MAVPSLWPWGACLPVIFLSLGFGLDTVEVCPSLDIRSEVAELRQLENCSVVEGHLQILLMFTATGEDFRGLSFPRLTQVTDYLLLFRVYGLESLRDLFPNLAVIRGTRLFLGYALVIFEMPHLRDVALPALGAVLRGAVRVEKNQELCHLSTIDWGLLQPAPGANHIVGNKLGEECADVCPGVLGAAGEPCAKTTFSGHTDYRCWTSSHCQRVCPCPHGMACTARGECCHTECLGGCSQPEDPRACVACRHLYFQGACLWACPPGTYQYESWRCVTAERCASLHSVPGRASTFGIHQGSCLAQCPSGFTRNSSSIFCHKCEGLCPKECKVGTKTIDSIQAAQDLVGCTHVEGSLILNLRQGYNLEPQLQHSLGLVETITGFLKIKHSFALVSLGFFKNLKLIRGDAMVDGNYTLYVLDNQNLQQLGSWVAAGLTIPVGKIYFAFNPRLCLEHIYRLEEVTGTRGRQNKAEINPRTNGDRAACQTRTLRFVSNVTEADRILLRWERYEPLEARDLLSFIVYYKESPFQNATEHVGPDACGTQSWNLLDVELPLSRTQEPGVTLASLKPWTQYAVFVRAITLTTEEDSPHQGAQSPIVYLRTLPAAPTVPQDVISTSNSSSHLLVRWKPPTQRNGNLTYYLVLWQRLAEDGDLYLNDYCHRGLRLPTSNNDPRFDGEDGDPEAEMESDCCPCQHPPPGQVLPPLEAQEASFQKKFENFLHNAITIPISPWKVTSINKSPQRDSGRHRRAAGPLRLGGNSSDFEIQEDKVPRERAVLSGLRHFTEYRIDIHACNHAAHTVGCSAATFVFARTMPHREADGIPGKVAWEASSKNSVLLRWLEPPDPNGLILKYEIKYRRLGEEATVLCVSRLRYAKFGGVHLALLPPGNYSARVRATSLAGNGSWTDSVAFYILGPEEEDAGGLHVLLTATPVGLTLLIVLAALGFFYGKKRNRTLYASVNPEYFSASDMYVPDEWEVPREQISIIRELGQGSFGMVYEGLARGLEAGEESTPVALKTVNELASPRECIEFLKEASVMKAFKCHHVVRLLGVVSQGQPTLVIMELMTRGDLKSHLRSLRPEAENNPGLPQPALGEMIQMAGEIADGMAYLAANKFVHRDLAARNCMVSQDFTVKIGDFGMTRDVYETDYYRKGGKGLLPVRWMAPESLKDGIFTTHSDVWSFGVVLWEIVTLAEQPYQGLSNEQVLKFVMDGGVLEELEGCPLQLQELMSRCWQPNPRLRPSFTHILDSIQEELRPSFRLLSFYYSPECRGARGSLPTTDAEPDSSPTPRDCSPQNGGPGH
Chain of UniProt P41143 (whole entry, looked up): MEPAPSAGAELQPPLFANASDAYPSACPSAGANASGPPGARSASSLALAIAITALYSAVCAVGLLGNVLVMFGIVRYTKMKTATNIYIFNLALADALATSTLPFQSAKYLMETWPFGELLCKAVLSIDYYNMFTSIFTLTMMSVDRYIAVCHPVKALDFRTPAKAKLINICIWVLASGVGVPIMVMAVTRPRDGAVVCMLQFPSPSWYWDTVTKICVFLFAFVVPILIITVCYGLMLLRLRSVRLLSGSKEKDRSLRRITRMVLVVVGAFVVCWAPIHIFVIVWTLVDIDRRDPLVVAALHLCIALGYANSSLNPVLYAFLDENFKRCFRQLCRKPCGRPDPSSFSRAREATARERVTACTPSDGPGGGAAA
Chain of UniProt P08631 (whole entry, looked up): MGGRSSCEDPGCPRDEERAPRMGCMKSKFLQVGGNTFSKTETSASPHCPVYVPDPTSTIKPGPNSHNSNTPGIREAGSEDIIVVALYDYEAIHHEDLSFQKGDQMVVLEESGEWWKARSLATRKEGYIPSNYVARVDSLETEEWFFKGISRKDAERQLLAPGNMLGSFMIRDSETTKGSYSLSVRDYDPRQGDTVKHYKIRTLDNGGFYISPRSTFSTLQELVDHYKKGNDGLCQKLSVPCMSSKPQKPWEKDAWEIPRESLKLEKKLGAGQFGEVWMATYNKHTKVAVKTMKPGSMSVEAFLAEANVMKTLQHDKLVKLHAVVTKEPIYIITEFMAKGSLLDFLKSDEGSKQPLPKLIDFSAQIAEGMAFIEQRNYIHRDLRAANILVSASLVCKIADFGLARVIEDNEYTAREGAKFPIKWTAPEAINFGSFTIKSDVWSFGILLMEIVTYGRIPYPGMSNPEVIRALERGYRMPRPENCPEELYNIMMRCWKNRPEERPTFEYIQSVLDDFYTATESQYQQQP
Chain of UniProt O43353 (whole entry, looked up): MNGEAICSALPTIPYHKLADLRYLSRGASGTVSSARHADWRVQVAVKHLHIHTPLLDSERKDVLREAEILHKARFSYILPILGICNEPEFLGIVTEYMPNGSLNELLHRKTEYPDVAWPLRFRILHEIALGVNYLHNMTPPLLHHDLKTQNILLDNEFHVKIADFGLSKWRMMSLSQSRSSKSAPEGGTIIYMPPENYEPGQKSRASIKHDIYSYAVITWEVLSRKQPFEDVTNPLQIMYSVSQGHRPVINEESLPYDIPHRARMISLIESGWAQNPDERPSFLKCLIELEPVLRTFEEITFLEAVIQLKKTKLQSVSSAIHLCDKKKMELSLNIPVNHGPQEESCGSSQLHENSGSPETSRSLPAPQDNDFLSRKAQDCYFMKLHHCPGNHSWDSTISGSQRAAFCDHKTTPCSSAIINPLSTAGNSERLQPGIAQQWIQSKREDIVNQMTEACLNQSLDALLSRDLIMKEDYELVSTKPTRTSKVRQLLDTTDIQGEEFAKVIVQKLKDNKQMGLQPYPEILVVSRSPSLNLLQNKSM
Chain of UniProt P04049 (whole entry, looked up): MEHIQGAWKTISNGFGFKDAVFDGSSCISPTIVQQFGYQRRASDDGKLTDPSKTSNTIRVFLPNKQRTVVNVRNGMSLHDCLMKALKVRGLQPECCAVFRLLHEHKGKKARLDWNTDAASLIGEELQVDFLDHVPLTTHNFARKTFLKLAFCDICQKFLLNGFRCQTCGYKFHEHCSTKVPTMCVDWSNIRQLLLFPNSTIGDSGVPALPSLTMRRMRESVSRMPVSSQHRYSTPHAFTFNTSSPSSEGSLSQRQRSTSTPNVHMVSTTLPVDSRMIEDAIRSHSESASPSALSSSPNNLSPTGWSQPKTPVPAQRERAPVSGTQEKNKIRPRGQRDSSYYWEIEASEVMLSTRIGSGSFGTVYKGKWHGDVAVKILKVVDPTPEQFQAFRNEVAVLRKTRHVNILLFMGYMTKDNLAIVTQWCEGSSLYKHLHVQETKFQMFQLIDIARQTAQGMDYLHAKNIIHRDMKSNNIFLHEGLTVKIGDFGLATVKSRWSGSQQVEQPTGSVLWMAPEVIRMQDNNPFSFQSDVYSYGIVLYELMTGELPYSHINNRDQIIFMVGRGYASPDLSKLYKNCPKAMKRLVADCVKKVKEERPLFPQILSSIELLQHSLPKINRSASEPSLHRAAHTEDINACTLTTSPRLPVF

Series 1
Target: Eukaryotic initiation factor 4A-I (EIF4A1, Homo sapiens, UniProt P60842)
Chain of UniProt P60842 (whole entry, looked up): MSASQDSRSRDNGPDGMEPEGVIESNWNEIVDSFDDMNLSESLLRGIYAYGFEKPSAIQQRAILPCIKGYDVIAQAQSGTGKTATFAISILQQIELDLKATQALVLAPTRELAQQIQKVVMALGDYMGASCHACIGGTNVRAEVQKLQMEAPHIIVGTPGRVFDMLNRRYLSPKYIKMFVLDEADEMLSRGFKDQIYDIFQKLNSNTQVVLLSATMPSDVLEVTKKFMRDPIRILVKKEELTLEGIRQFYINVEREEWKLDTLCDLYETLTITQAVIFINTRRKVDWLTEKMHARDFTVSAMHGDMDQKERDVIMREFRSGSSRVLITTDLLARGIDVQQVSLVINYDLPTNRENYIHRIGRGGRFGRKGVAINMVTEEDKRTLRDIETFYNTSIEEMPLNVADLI
Effect on: RNA clamping
Method: fluorescence polarization
Concentration: concentration not given
Setting: mean of two replicates
Added: FAM-labelled poly r(AG)8 RNA
Quantity: fluorescence polarization change
COC(=O)[C@H]1[C@H](c2ccccc2)[C@]2(c3ccc(OC)cc3)Oc3cc(OC)cc(OC)c3[C@@]23OC(c2ccccc2)=N[C@@]13O: 3.4 mP
COC(=O)[C@@H]1[C@@H](c2ccccc2)[C@]2(c3ccc(OC)cc3)Oc3cc(OC)cc(OC)c3[C@@]23OC(c2ccc(Cl)cc2)=N[C@@]13O: 2.1 mP
COC(=O)[C@H]1C(=O)[C@@]2(O)c3c(OC)cc(OC)cc3O[C@@]2(c2ccc(OC)cc2)[C@@H]1c1ccccc1: 47.1 mP
COC(=O)[C@@H]1[C@@H](c2ccccc2)[C@]2(c3ccc(OC)cc3)Oc3cc(OC)cc(OC)c3[C@@]23OC(c2ccc(OC)cc2)=N[C@@]13O: -0.8 mP
COC(=O)Cc1nc2c(c(=O)[nH]1)[C@@H](c1ccccc1)[C@]1(c3ccc(OC)cc3)Oc3cc(OC)cc(OC)c3[C@]21O: 35.4 mP
COC(=O)[C@@H]1[C@@H](c2ccccc2)[C@]2(c3ccc(OC)cc3)Oc3cc(OC)cc(OC)c3[C@@]23NC(C(C)(C)C)=N[C@@]13O: 63.6 mP
COC(=O)[C@H]1[C@H](c2ccccc2)[C@@]2(c3ccc(Br)cc3)Oc3cc(OC)cc(OC)c3[C@]1(O)[C@H]2O: 9.2 mP

Series 2
SMILES: O=C1NC(=O)c2c1c1c3ccccc3n3c1c1c2c2ccccc2n1[C@H]1CC[C@@H]3O1
Effect on: enzyme activity
Mode: inhibitor
Concentration: 0.5 µM
Reference: control
Quantity: remaining activity
Serine/threonine-protein kinase ULK1 (ULK1, Homo sapiens, UniProt O75385): 73.1%
Fibroblast growth factor receptor 2 (FGFR2, Homo sapiens, UniProt P21802): 34.1%
BDNF/NT-3 growth factors receptor (NTRK2, Homo sapiens, UniProt Q16620): 6.87%
RAF proto-oncogene serine/threonine-protein kinase (RAF1, Homo sapiens, UniProt P04049): 121%
Tyrosine-protein kinase HCK (HCK, Homo sapiens, UniProt P08631): 24.8%
Insulin receptor-related protein (INSRR, Homo sapiens, UniProt P14616): 7.16%
Receptor-interacting serine/threonine-protein kinase 2 (RIPK2, Homo sapiens, UniProt O43353): 79.7%

Series 3
Cell line: HaCaT
Concentration: 100 µM
Time: 36 h
Quantity: viability
CCCC(C)(COC(N)=O)COC(=O)NC(C)C (stereo not drawn): 90.3%
CC(O)(CS(=O)(=O)c1ccc(F)cc1)C(=O)Nc1ccc(C#N)c(C(F)(F)F)c1 (stereo not drawn): 39.6%
C[C@]12CCC(=O)C(O)=C1CC[C@@H]1[C@@H]2CC[C@]2(C)C(=O)CC[C@@H]12: 81.4%

Single results of other studies
CCS(=O)(=O)c1cc2cc(C[C@](O)(CC(C)(C)c3ccc(F)cc3C(N)=O)C(F)(F)F)[nH]c2cn1  inhibition (Delta-type opioid receptor (OPRD1, Homo sapiens, UniProt P41143); ligand displacement; 10 µM): -2.58%
C[C@H](NC(=O)c1cnc2n1[C@](C)(Cc1ccc(C#N)cc1)C(=O)N2c1cc(Cl)c(F)c(Cl)c1)C(=O)NC1(c2ccccn2)CC1  remaining binding (Cyclin-dependent kinase 2 homolog (CRK2, Plasmodium falciparum, UniProt P61075); cell-free assay, competition with immobilised ligand; 1 µM): 100%
CC(=O)c1c(NS(C)(=O)=O)c2cc(-c3ccc(Cl)cc3)c(-c3ccc(Cl)cc3Cl)nc2n(C)c1=O  remaining binding (Serine/threonine-protein kinase PknB (pknB, Mycobacterium tuberculosis, UniProt P9WI81); cell-free assay, competition with immobilised ligand; 1 µM): 83%
O=C(Nc1cnc(Oc2ccc(F)cc2)nc1)N1CCc2ncccc2[C@@H]1c1ccc(F)cc1  remaining binding (Calcium-dependent protein kinase 1 (CDPK1, Plasmodium falciparum, UniProt P62344); cell-free assay, competition with immobilised ligand; 1 µM): 95%

For quick reference, copied from above (series 3):
CCCC(C)(COC(N)=O)COC(=O)NC(C)C (stereo not drawn): 90.3%
CC(O)(CS(=O)(=O)c1ccc(F)cc1)C(=O)Nc1ccc(C#N)c(C(F)(F)F)c1 (stereo not drawn): 39.6%
C[C@]12CCC(=O)C(O)=C1CC[C@@H]1[C@@H]2CC[C@]2(C)C(=O)CC[C@@H]12: 81.4%
